Experimental data collected from several papers.
± gives the spread as reported.
APP amyloid-beta aggregates: Amyloid-beta precursor protein, amyloid-beta aggregates (APP, Homo sapiens, UniProt P05067)
APP Aβ40 fibrils: Amyloid-beta precursor protein, Aβ40 fibrils (APP, Homo sapiens, UniProt P05067)
APP: Amyloid-beta precursor protein (APP, Homo sapiens, UniProt P05067)
APP Aβ42 aggregates: Amyloid-beta precursor protein, Aβ42 aggregates (APP, Homo sapiens, UniProt P05067)

Compound | target | test | system | conditions | measurement | value
CCN(CC)c1ccc(C=C(C#N)C(=O)OCCOCCOCCOC)cc1 | APP amyloid-beta aggregates | IgG-amyloid beta binding, inhibitor, ELISA |  | 50 % inhibition, together with: aggregated amyloid beta | IC50 | 11400 nM
CN(C)c1ccc(-c2nc3ccc(OCCCCCN4CCN5CCN(CC4)CC(=O)[O][Al]([F])[O]C(=O)C5)cc3s2)cc1 | Amyloid-beta precursor protein, fibril (APP, Homo sapiens, UniProt P05067) | ligand displacement, radioligand |  |  | Ki | 11.3 nM
CN1CCN(C)CCN(Cc2c(O)ccc3nc(-c4ccc(N(C)C)cc4)sc23)CC1 | APP Aβ40 fibrils | binding to Aβ aggregates, ThT competition |  | Aβ 5 µM, together with: ThT 2 µM | Ki | 11 ± 7 nM
COc1ccc(-c2cc(=O)c3c(O)cc(O)c(-c4cc(-c5cc(=O)c6c(O)cc(O)cc6o5)ccc4O)c3o2)cc1 | APP | amyloid aggregation, inhibitor, fluorescence |  |  | IC50 | 190 nM
O=C(O)CN(CCNc1ccc(N=Nc2cc(C(F)(F)F)cc(C(F)(F)F)c2)c2ccccc12)CC(=O)O | APP | binding, MST |  |  | Kd | 732 nM
COc1ccc(C(=O)Nc2cc(-c3ccc(I)cc3)no2)cc1 [iodine-125 labelled] | Amyloid-beta precursor protein, Aβ42 fibrils (APP, Homo sapiens, UniProt P05067) | radioligand, radioligand saturation binding |  | APP 100 nM | Kd | 2.47 ± 1.3 nM
O=C(O)c1ccc2[nH]cc(-c3ccc4cc(O)ccc4c3)c2c1 | Amyloid-beta precursor protein, amyloid-beta 1-40 peptide (APP, Homo sapiens, UniProt P05067) | Aβ1-42 oligomerization, inhibitor, ELISA |  |  | IC50 | 9000 nM
COCCOCCOCCOC(=O)/C(C#N)=C/c1ccc2cc(NCCN3CCOCC3)ccc2c1 | APP Aβ42 aggregates | binding, fluorescence titration |  | 5% DMSO in water, together with: aggregated Abeta42 5 µM | Kd | 6700 ± 2100 nM
OC(Cc1cc(-c2ccc(C(O)C(F)(F)F)s2)sc1-c1ccc(-c2sc(-c3ccc(C(O)C(F)(F)F)s3)cc2CC(O)C(F)(F)F)s1)C(F)(F)F (stereo not drawn) | Amyloid-beta precursor protein, Aβ40 aggregates (APP, Homo sapiens, UniProt P05067) | fluorescence |  | Aβ aggregated 90 min | Kd | 7580 ± 2470 nM
COc1cc(O)c(O)c2c1C(=O)CC(c1ccccc1)O2 (stereo not drawn) | APP |  |  |  | IC50 | 33400 ± 1400 nM
CCCCN(CCCC)c1ccc(C=C(C#N)C(=O)OCCOCCOCCOC)cc1 | APP Aβ42 aggregates | binding, fluorescence titration |  | together with: pre-aggregated Aβ(1-42) 5.0 µM | Kd | 4400 nM
CCc1noc(-c2ccc(-n3cnc(C(=O)NCc4cccs4)c3)nc2)n1 | Amyloid-beta precursor protein, amyloid-beta (APP, Homo sapiens, UniProt P05067) | binding, competition binding | Alzheimer brain homogenate | together with: [3H]PiB | Ki | > 1000 nM
COCCOCCOCCOC(=O)C(C#N)=Cc1ccc(N(C)C)cc1 | APP amyloid-beta aggregates | IgG-amyloid beta binding, inhibitor, ELISA |  | 50 % inhibition, together with: aggregated amyloid beta | IC50 | 129000 nM
COc1cc(O)cc2cc3oc(C)cc(=O)c3c(O)c12 | APP | amyloid aggregation, inhibitor, fluorescence |  |  | IC50 | 2800 nM
COc1cc(-c2nc3ccccc3s2)cc(CN2Cc3cccc(n3)CN(Cc3cc(-c4nc5ccccc5s4)cc(OC)c3O)Cc3cccc(n3)C2)c1O | APP Aβ40 fibrils | Aβ fibril binding, ThT fluorescence competition |  | Cu complex of ligand, Aβ 2 µM, together with: thioflavin T 1 µM | Ki | 142 ± 55 nM
